# Assay results gathered from unrelated publications.
# ± marks the error that the study gave.
# dppA: dppA (Mycobacterium tuberculosis, UniProt I6X811)
# 4'-phosphopantetheinyl transferase PptT: 4'-phosphopantetheinyl transferase PptT (Mycobacterium tuberculosis, UniProt O33336)
# CNR1 with Gz: Cannabinoid receptor 1, with Gz (CNR1, Homo sapiens, UniProt P21554)
# USP14: Ubiquitin carboxyl-terminal hydrolase 14 (USP14, Homo sapiens, UniProt P54578)
SMILES,target or system,test,test system,conditions,how to read,quantity,value
C[C@H](N)C(=O)N[C@@H](C)C(=O)N[C@@H](C)C(=O)O,dppA,,,pH 7.4,,kon,1.16 ± 20000 M⁻¹ s⁻¹
C#CCN(Cc1ccc2nc(C)[nH]c(=O)c2c1)c1cnc(C(=O)NC(CCC(=O)O)C(=O)O)s1 (stereo not drawn),4'-phosphopantetheinyl transferase PptT,"enzyme activity, inhibitor, fluorescence polarisation",,,,Hill slope,1.2
CC(C)[C@H](NC(=O)[C@@H](NC(=O)[C@@H](N)CC(=O)O)C(C)C)C(=O)O,dppA,,,pH 7.4,,kon,2.98 ± 2000 M⁻¹ s⁻¹
COc1ccccc1C(C[N+](=O)[O-])c1c(-c2ccccc2)[nH]c2ccccc12 (stereo not drawn),CNR1 with Gz,"Gz dissociation, agonist, BRET",,,,Emax,24.8 ± 1.55%
CCC[C@H](C(=O)c1ccccc1)N1CCCC1,"Sodium-dependent dopamine transporter (SLC6A3, Homo sapiens, UniProt Q01959)","DAT-mediated current, inhibitor, electrophysiology",human DAT-expressing cells,"100 µM, with: 30 µM dopamine",,maximal inhibition rate (kapp max),0.7 s⁻¹
CC[C@H](C)[C@@H]1NC(=O)CNC(=O)[C@@H]2Cc3c([nH]c4cc(O)ccc34)[S@+]([O-])C[C@H](NC(=O)CNC1=O)C(=O)N[C@@H](CC(N)=O)C(=O)N1C[C@H](O)C[C@H]1C(=O)N[C@@H]([C@@H](C)[C@@H](O)CO)C(=O)N2,"DNA-directed RNA polymerase II subunit RPB1 (Homo sapiens, UniProt P24928)",,HeLa nuclear extract,"30.00 nM, 60 min",,transcription activity,23 ± 3%
Cc1nc2ccc(CN(C)c3sc(C(=O)NC(CCC(=O)O)C(=O)O)cc3F)cc2c(=O)[nH]1 (stereo not drawn),4'-phosphopantetheinyl transferase PptT,"enzyme activity, inhibitor, fluorescence polarisation",,,,Hill slope,1.3
CC(C)[C@H](N)C(=O)N[C@H](C(=O)N[C@H](C(=O)O)C(C)C)C(C)C,dppA,,,pH 7.4,,kon,3.44 ± 20000 M⁻¹ s⁻¹
Cc1ccc2c(C(C[N+](=O)[O-])c3cccs3)c(-c3ccccc3)[nH]c2c1 (stereo not drawn),CNR1 with Gz,"Gz dissociation, agonist, BRET",,,,Emax,49.7 ± 0.99%
CCN(Cc1ccc2nc(C)[nH]c(=O)c2c1)c1cnc(C(=O)NC(CCC(=O)O)C(=O)O)s1 (stereo not drawn),4'-phosphopantetheinyl transferase PptT,"enzyme activity, inhibitor, fluorescence polarisation",,,,Hill slope,1.2
O=[N+]([O-])CC(c1ccco1)c1c(-c2ccccc2)[nH]c2ccccc12 (stereo not drawn),"Cannabinoid receptor 1 (CNR1, Homo sapiens, UniProt P21554, I245L)","Gαi1-γ2 dissociation, BRET",,,,Emax,109 ± 9.32%
CC(C)C[C@H](NC(=O)[C@H](CC(C)C)NC(=O)[C@@H](N)CC(C)C)C(=O)O,dppA,,,pH 7.4,,kon,8.97 ± 7000 M⁻¹ s⁻¹
CCOc1cc(C=C2C(=O)NC(=O)NC2=O)cc(Cl)c1O,USP14,"enzyme activity, inhibitor",,17 µM,,inhibition,35%
CCCCCn1cc(C(=O)c2cccc3ccccc23)c2ccccc21,"Cannabinoid receptor 1 (CNR1, Homo sapiens, UniProt P21554, F174A)","Gαi1 engagement, agonist, BRET",,,baseline: reference agonist at wild-type CB1,Emax,114 ± 2%
C#CCN(Cc1ccc2nc(C)[nH]c(=O)c2c1)c1ccc(C(=O)N[C@@H](CC(=O)NCC(=O)O)C(=O)O)cc1,4'-phosphopantetheinyl transferase PptT,"enzyme activity, inhibitor, fluorescence polarisation",,,,Hill slope,0.9
O=C1NC(=S)NC(=O)C1=C/C=C/c1ccco1,USP14,"enzyme activity, inhibitor",,17 µM,,inhibition,36%
CCN(CC)C(=O)[C@@H]1C=C2c3cccc4c3c(cn4C(=O)c3ccco3)C[C@H]2N(C)C1,"Alpha-1B adrenergic receptor (ADRA1B, Homo sapiens, UniProt P35368)",radioligand binding,,10 µM,,inhibition,< 50%
CC(C)CC(C(=O)N1CC2(CC1C#N)C(=O)Nc1ccccc12)N(C)C(=O)c1cc2c(F)cc(F)c(F)c2[nH]1 (stereo not drawn),"Caspase-2 (Homo sapiens, UniProt P42575)",,,,,Hill slope,-0.21
CC[C@H](C)[C@@H]1NC(=O)[C@@H](NC(=O)CNC(=O)[C@@H](N)CCCCN)CSSC[C@@H]2NC(=O)[C@@H]3CSSC[C@H](NC(=O)[C@H](CCC(N)=O)NC(=O)[C@H](CC(C)C)NC(=O)[C@@H]4CCCN4C(=O)[C@H](CCCNC(=N)N)NC2=O)C(=O)N[C@@H](CCCCN)C(=O)NCC(=O)N2CCC[C@H]2C(=O)N[C@@H](CO)C(=O)N2CCC[C@H]2C(=O)N[C@@H](CCCCN)C(=O)N[C@@H](CCC(N)=O)C(=O)N[C@@H](CCCCN)C(=O)N[C@@H](CCCCN)C(=O)N[C@H](C(=O)N[C@H](C(=O)N[C@@H](CCCCN)C(=O)N[C@H](C(=O)O)C(C)C)[C@@H](C)O)CSSC[C@H](NC(=O)[C@H](Cc2c[nH]c4ccccc24)NC(=O)[C@H](CCCCN)NC(=O)CNC(=O)[C@H](CCC(=O)O)NC(=O)[C@H](CCCCN)NC1=O)C(=O)N1CCC[C@H]1C(=O)N[C@@H](CCCCN)C(=O)N[C@@H]([C@@H](C)O)C(=O)N[C@@H](C)C(=O)N1CCC[C@H]1C(=O)N3,"Potassium voltage-gated channel subfamily A member 2 (KCNA2, Homo sapiens, UniProt P16389)","potassium current, whole-cell patch clamp",,0.3 µM,,inhibition,~50%
Cc1nc2ccc(CN(C)c3ccc(C(=O)NC(CCC(=O)O)C(=O)O)cc3)cc2c(=O)[nH]1 (stereo not drawn),4'-phosphopantetheinyl transferase PptT,"enzyme activity, inhibitor, fluorescence polarisation",,,,Hill slope,1.4
CCCCCn1cc(C(=O)c2cccc3c2CC(C)(C)C3)c2ccccc21,"Cannabinoid receptor 1 (CNR1, Homo sapiens, UniProt P21554, F170A)","Gαi1 engagement, agonist, BRET",,,baseline: reference agonist at wild-type CB1,Emax,48.7 ± 3.8%
CC(C)(C)C(=O)OCOP(=O)(OCOC(=O)C(C)(C)C)C1CCCN(O)C1=O (stereo not drawn),RXF 393,,,,,CC50,> 100 µM
C#CCN(Cc1ccc2nc(C)[nH]c(=O)c2c1)c1cc(F)c(C(=O)N[C@H](CCC(=O)O)C(=O)O)c(F)c1,4'-phosphopantetheinyl transferase PptT,"enzyme activity, inhibitor, fluorescence polarisation",,,,Hill slope,1.2
CC(C)[C@H](NC(=O)[C@H](CO)NC(=O)[C@@H](N)CO)C(=O)N[C@H](C(=O)O)[C@@H](C)O,dppA,thermal stability,,50 µM,,ΔTm,4.4 °C
C#CCN(Cc1ccc2nc(C)[nH]c(=O)c2c1)c1ccc(C(=O)NC(CCC(=O)O)C(=O)O)c(N)c1 (stereo not drawn),4'-phosphopantetheinyl transferase PptT,"enzyme activity, inhibitor, fluorescence polarisation",,,,Hill slope,0.9
Cc1sc2c(c1C)C(c1ccc(Cl)cc1)=NC(CC(=O)OC(C)(C)C)c1nnc(C)n1-2 (stereo not drawn),"5-hydroxytryptamine receptor 2B (HTR2B, Homo sapiens, UniProt P41595)","ligand displacement, radioligand",,1 µM,,remaining binding,101%
COc1ccc2nccc(CC[C@H]3OC[C@H](NC(=O)c4ccc(Cl)cc4)CO3)c2c1,"DNA gyrase subunit A, with GyrB (Mycobacterium tuberculosis, UniProt P9WG47)",DNA cleavage,,"concentration not given, 10 min, 37 °C, with: gyrase 100 nM",,maximal single-stranded DNA breaks,~3%
CN(Cc1ccc2nc(CF)[nH]c(=O)c2c1)c1ccc(C(=O)NC(CCC(=O)O)C(=O)O)s1 (stereo not drawn),4'-phosphopantetheinyl transferase PptT,"enzyme activity, inhibitor, fluorescence polarisation",,,,Hill slope,0.9
O=C1NC2(CC2)COc2ncc(F)cc2[C@H]2COCCN2c2ccn3ncc1c3n2,,,"Sprague-Dawley rat, male, thymus","oral, 10 mg/kg/day, 4 weeks, end of treatment",,organ-to-body weight ratio,0.162 ± 0.03%
Nc1ccc(/C=C/C(=O)N2CCc3c(oc4c(-c5ccc(F)cc5)cc(-c5ccc(C(=O)N6CCC(F)(F)CC6)cn5)cc34)C2)cn1,"Dual specificity tyrosine-phosphorylation-regulated kinase 1B (DYRK1B, Homo sapiens, UniProt Q9Y463)","binding, competition with immobilised ligand",,1 µM,,remaining binding,85%

# For quick reference, copied from above:
SMILES,target or system,test,test system,conditions,how to read,quantity,value
CC(C)(C)C(=O)OCOP(=O)(OCOC(=O)C(C)(C)C)C1CCCN(O)C1=O (stereo not drawn),RXF 393,,,,,CC50,> 100 µM
CC[C@H](C)[C@@H]1NC(=O)[C@@H](NC(=O)CNC(=O)[C@@H](N)CCCCN)CSSC[C@@H]2NC(=O)[C@@H]3CSSC[C@H](NC(=O)[C@H](CCC(N)=O)NC(=O)[C@H](CC(C)C)NC(=O)[C@@H]4CCCN4C(=O)[C@H](CCCNC(=N)N)NC2=O)C(=O)N[C@@H](CCCCN)C(=O)NCC(=O)N2CCC[C@H]2C(=O)N[C@@H](CO)C(=O)N2CCC[C@H]2C(=O)N[C@@H](CCCCN)C(=O)N[C@@H](CCC(N)=O)C(=O)N[C@@H](CCCCN)C(=O)N[C@@H](CCCCN)C(=O)N[C@H](C(=O)N[C@H](C(=O)N[C@@H](CCCCN)C(=O)N[C@H](C(=O)O)C(C)C)[C@@H](C)O)CSSC[C@H](NC(=O)[C@H](Cc2c[nH]c4ccccc24)NC(=O)[C@H](CCCCN)NC(=O)CNC(=O)[C@H](CCC(=O)O)NC(=O)[C@H](CCCCN)NC1=O)C(=O)N1CCC[C@H]1C(=O)N[C@@H](CCCCN)C(=O)N[C@@H]([C@@H](C)O)C(=O)N[C@@H](C)C(=O)N1CCC[C@H]1C(=O)N3,"Potassium voltage-gated channel subfamily A member 2 (KCNA2, Homo sapiens, UniProt P16389)","potassium current, whole-cell patch clamp",,0.3 µM,,inhibition,~50%
CCC[C@H](C(=O)c1ccccc1)N1CCCC1,"Sodium-dependent dopamine transporter (SLC6A3, Homo sapiens, UniProt Q01959)","DAT-mediated current, inhibitor, electrophysiology",human DAT-expressing cells,"100 µM, with: 30 µM dopamine",,maximal inhibition rate (kapp max),0.7 s⁻¹
Nc1ccc(/C=C/C(=O)N2CCc3c(oc4c(-c5ccc(F)cc5)cc(-c5ccc(C(=O)N6CCC(F)(F)CC6)cn5)cc34)C2)cn1,"Dual specificity tyrosine-phosphorylation-regulated kinase 1B (DYRK1B, Homo sapiens, UniProt Q9Y463)","binding, competition with immobilised ligand",,1 µM,,remaining binding,85%
